# Measurements of several laboratories.
# Each numbered part is a random draw from the data of one study; scales do not carry over between parts. Positions count from the first letter of the parent shown.

# Series 1
# Target: Interferon regulatory factor 5, full length, phosphomimetic (IRF5, Homo sapiens, UniProt Q13568-2, residues 1-514, S451D/S453D/S456D/S462D)
# Method: protein-binding microarray
# Molecule type: double-stranded DNA, one strand shown
# Sample: in vitro
# Concentration: 940 nM top
# Notes: 60-bp whole probe
# With: salmon DNA 0.4 mg/ml
# Reference: random background probes
# Direction: higher = stronger binding
# Constant ends, left off below: GCCTAGCAC … GTCTTGATTCGCTTGACGCTGCTG
Oligonucleotide,fitted relative affinity [z-score]
TTAGGACTGCATTTCCTTTAGTGCTAG,-0.529
GACGGTATCGGTTTCGGGCCGTGCTAG,9.24
TTAGCTCTCCTTCTCCTTTAGTGCTAG,0.406
TTAAATTCCAGTTTCGATTAGTGCTAG,9.62
TCATATATATATTATATAACTGTGCTA,0.249
AAGTTTTTCATTTTTTTTCAGTGCTAG,1.54
TCACTGATCCATTTTGGACTGTGCTAG,-0.0874
TCCATTTTCTGAATGCTACTGTGCTAG,0.505
TTAGAACTGGGGTTTCGAATAGTGCTA,1.78
TCATTTTTTTACTTCGGACTGTGCTAG,1.07
TCAAGAATGCCTTTAATACTGTGCTAG,-0.116
TCAACTTGGAATTTCCCACTGTGCTAG,-0.125

# Series 2
# Target: CCNA2, cyclin fold, Cln2 fusion (human)
# Method: yeast growth competition, sequencing
# Sample: yeast
# Notes: strong parent motif
# Reference: not given
# Direction: higher = stronger binding
# Parent: E2F1 docking peptide (human); PPVKRRLDLETDH
Substitution,normalised enrichment score
P2F,3.18
P2C,3.84
D8L,4.22
P2V,2.67
V3G,0.798
V3P,2.02
H13N,4.34
H13F,4.03
H13C,4.24
D12M,4.98
R6V,0.746

# Series 3
# Target: RNA binding protein fox-1 homolog 2, RRM domain, GST-SBP tag (RBFOX2, Homo sapiens, UniProt O43251-10, residues 100-194)
# Method: RNA Bind-n-Seq
# Molecule type: RNA
# Sample: in vitro
# Concentration: 365 nM
# Notes: natural RNA segment, single round, ends assumed
# Reference: no-protein control
# Direction: higher = stronger binding
# Construct (chain): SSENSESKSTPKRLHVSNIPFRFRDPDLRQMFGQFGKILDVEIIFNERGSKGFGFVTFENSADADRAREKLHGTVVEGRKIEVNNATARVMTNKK
Oligonucleotide,RBNS enrichment (R)
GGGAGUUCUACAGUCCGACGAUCGAAGGCAGGUGGGAGGGAAAGGAAGGGGCACAGCCCUAUUUCUUCCUACCUGCUAGGACAAGGUGGAAGAGUGUAUCUGGGGUGGGAAGGAGGGCUUCCCCUCUCUGCUGUGGAAUUCUCGGGUGCCAA,0.661
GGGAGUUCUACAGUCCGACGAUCUCUCUAAAGGGAAAGGGCUUUUGCAUCUAAUCACAAUAGAGUUGAAAGAGAGGCCUUAGGAUUCUCCUCUCUCUAGGUGCUGAGCCCUCACCUCCCUGUUCCAGGCUGAGUGGAAUUCUCGGGUGCCAA,0.294
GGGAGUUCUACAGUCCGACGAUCGCCCGUCACUUCAGUGUAGCAGAUGCCAGCAGGGUCCUGGAACAACUACAGAGGGAUUAUGACAGGUCCUUGAGCCGCCUAACACUGGAUGACAUCGAACGUUUGGCCAGUGGAAUUCUCGGGUGCCAA,0.439
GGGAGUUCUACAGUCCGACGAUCCCUUUCUGCUUCGGGCAGCCUGGACUCCAGCCCUGAGUAUAGAGGCGGUGUGGAUGGCUGGCCCUCAUCCUACCUGUGUCUUUAUUGCUUUGAUCACCACAGUCUCUAACUGGAAUUCUCGGGUGCCAA,0.644
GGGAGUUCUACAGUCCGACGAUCAAGCUCCAAUGUAUUAUGGAAACAUGUGCUUUUACGCCUCCAAUAAAACUAUGUUAUCGAUGGGCUCAGCUUCUAGAACCUUCUUUUCCGCUGAACCAGAAUCUAUCCCGUGGAAUUCUCGGGUGCCAA,0.436
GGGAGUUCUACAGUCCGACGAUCUGAUGGCUUCUUAUGUGCAUUCAACAGUUAAAAAUUCCUAAUCGAUUCUGUCAUCAUGCCCCCUCCCCACUUGUUCCUGCAGUUAUUAAAUAUUAACCAGGUUAGUGUUGUGGAAUUCUCGGGUGCCAA,0.601
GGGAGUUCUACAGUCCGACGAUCGAACCCCUGGACUUGCCAGGUGCCUGAGCAUCUUCCCAGGAUAUGCCUGCCAGCCAGCAGCCCCUCAGGAAUGCUUCUAUAAUAGAUCCAGUAAUGAAAGCAGCACCAUAUGGAAUUCUCGGGUGCCAA,0.76
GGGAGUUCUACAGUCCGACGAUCUGGAAGAAAGAUGGAGCUCCUCCACAGAGACAGAAAGAAACCACAGCAAGAAAACAGACCUCAAGUUUCCACUCUGACCUGCCAGGUGGCCACUGGGUAAACAAGUCCUUUGGAAUUCUCGGGUGCCAA,0.577
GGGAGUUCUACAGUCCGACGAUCAUGCCUCGCUGGGGCUGAGACUUUUUUAAUCCUUGUGUAAAGAAGCGAGAUCGAGGCAGAGAAACGUAAUUUGUCCAUCACAUGGGGUUUGGAAAUAAAUAUAUUAUUUGUGGAAUUCUCGGGUGCCAA,0.535
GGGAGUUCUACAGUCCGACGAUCGGACCUUUCCUCCCCGGUCUCAGAGAUGCACAUCUCUUUGAGGAUCGGCUUGGCUGGAAGACAGGGUGUGAGUGCGACAACAGGGGCACAGGUUGGGUUUGCCAAACGUCUGGAAUUCUCGGGUGCCAA,0.477
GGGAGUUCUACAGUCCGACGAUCAAAGCAGAUUACAGAAAUGUAAGUCAACUUAAGAACGGUGAAUGAAUGUAAAAACAUUCAGUUGAGACCAUAUGCAUUUUCUGUGCUGUUUGUACUUGAGGUAUGUAACAUGGAAUUCUCGGGUGCCAA,0.44
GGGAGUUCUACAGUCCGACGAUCGGGCCCCAGCUCGCGGGACCCGACCCCCCGUGGGCUCCCGUGUUUUGUAGGAGACUUGCCAGAGCCGGGCACAUUGAGCUGUGCAACGCCGUGGGCUGCGUCCUUUGGUCUGGAAUUCUCGGGUGCCAA,0.859

# Single results of other studies
Substance,target,test,test system,setting,scale,quantity,value
"PhoQ, residues 284 288 289 292 302 303 AANNSF","PhoP, residues 12 14 15 18 19 VQALL (Escherichia coli, UniProt P23836)","Sort-seq, measured: YFP reporter",E. coli,"PhoQ-PhoP variant library, with: 10 µM Mg2+","reference: high Mg2+ state, higher = stronger signaling",fold induction,13.6

# Excerpt of the above (single results of other studies):
Substance,target,test,test system,setting,scale,quantity,value
"PhoQ, residues 284 288 289 292 302 303 AANNSF","PhoP, residues 12 14 15 18 19 VQALL (Escherichia coli, UniProt P23836)","Sort-seq, measured: YFP reporter",E. coli,"PhoQ-PhoP variant library, with: 10 µM Mg2+","reference: high Mg2+ state, higher = stronger signaling",fold induction,13.6
